Measurements from different studies.
Lines come from different studies, so protocols differ. Several values in a cell are separate wells, animals, samples, runs or records. ± gives the spread as reported.

COc1ccc(-c2nc(N)nc(N)c2-c2nc3ccccc3s2)cc1
maximum non-toxic concentration (FRhK-4; cytotoxicity; 72 h): 90 µg/mL

COc1ccc(Oc2ccc(CNCc3cnc4nc(N)nc(N)c4n3)cc2)cc1
CC50 (THP-1-derived macrophages; MTT): 12.5 to 25 µM

Cn1nc2c(=O)n(C3CC3)ncc2c1[C@](O)(c1cnc(C(F)(F)F)c(Cl)c1)C(F)(F)F
Papp (B-A) (Caco-2 monolayer): 75.1 ×10⁻⁶ cm/s

Nc1n[nH]c2c(-c3nc4ccccc4s3)c(N)n(NS(=O)(=O)c3ccccc3)c(=O)c12
maximum non-toxic concentration (FRhK-4; 72 h): 90 µg/mL

NC(=O)C1CCCN1C(=O)Cc1ccc(N(CCCO)Cc2cnc3nc(N)nc(N)c3n2)cc1 (stereo not drawn)
CC50 (THP-1-derived macrophages; MTT): > 100 µM

O=c1cc(-c2ccc(O)cc2)oc2c([C@@H]3O[C@H](CO)[C@@H](O)[C@H](O)[C@H]3O)c(O)cc(O)c12
Papp increase (Caco-2 monolayer; transwell permeability; 100 µg/mL, apical to basolateral, HBSS, DMSO 1%, with: digoxin 5 ng/mL; baseline: digoxin alone): 15.3%

CSc1nc(NS(=O)(=O)c2ccccc2)nc(N)c1-c1nc2ccccc2s1
maximum non-toxic concentration (FRhK-4; cytotoxicity; 72 h): 90 µg/mL

Cc1cc(C)c(CNC(=O)c2cc(Cl)c3c(c2C)O[C@@](C)([C@H]2CC[C@H](N(C)C)CC2)O3)c(=O)[nH]1
Papp A to B (Caco-2; 1 µM): 0.395 ± 0.015 ×10⁻⁶ cm/s

COc1ccc(-c2nc(NS(=O)(=O)c3ccc(C)cc3)nc(N)c2-c2nc3ccccc3s2)cc1
maximum non-toxic concentration (FRhK-4; cytotoxicity; 72 h): 90 µg/mL

COc1cc2ncnc(Nc3ccc(Oc4ccccc4)c(C)c3C)c2cc1OC.Cl
viability (LoVo (KRAS G13D); cell growth, resazurin; 1 µM, 72 h, with: 0 nM trametinib; baseline: DMSO): 0.737 fraction of control

NC(=O)C1CCN(C(=O)Cc2ccc(N(CCCO)Cc3cnc4nc(N)nc(N)c4n3)cc2)CC1
CC50 (THP-1-derived macrophages; MTT): > 100 µM

CCN(CC)C(=S)SSC(=S)N(CC)CC
cytotoxicity (LUHMES MT1G-HiBiT neurons, differentiated; concentration not given): toxic

CC1(C)CC[C@]2(C(=O)O)CC[C@]3(C)C(=CC[C@@H]4[C@@]5(C)CC[C@H](O)C(C)(C)[C@@H]5CC[C@]43C)[C@@H]2C1
cytotoxicity (N2a APP695; MTT; 5 µM): not toxic

O=C(Nc1ccc(Cl)c(Br)c1)c1ccc2c(c1)C(=O)NC2=O
viability (SH-SY5Y; MTT; 1 to 20 µM, 24 h): not toxic

Cc1ccc(-c2nc(N)nc(N)c2-c2nc3ccccc3s2)cc1
maximum non-toxic concentration (FRhK-4; cytotoxicity; 72 h): 110 µg/mL

Cc1ccc(S(=O)(=O)Nn2c(N)c(C#N)cc(C#N)c2=O)cc1
maximum non-toxic concentration (FRhK-4; 72 h): 100 µg/mL

Nc1nc(N)c2nc(C(=O)NCc3cccc(C(F)(F)F)c3)cnc2n1
CC50 (THP-1-derived macrophages; MTT): 12.5 to 25 µM

COc1cc(/C=C/C(=O)C(=Cc2ccccc2)C(=O)/C=C/c2ccc(O)c(OC)c2)ccc1O
viability (WRL68; MTT; 0.8 µg/mL, 48 h, 10% FBS): 11.2% and 10.6%

Cc1cc(C(=O)NC(C)(C)COc2cccc3c2C(N)=NS(=O)(=O)N3)cc(C)n1
micronucleated binucleated cells (human peripheral blood lymphocytes; in vitro micronucleus test; 1000 µg/mL, 4 h, with rat liver S9 activation, DMSO 0.4%): 0.1%

Nc1nc(N)c2nc(C(=O)NCc3ccccc3)cnc2n1
CC50 (THP-1-derived macrophages; MTT): 12.5 to 25 µM

CCSc1c(-c2nc3ccccc3s2)c(N)n(NS(=O)(=O)c2ccc(C)cc2)c(=O)c1C#N
maximum non-toxic concentration (FRhK-4; 72 h): 120 µg/mL
